Published values from different studies.
Parts stem from different laboratories: compare values within a part only.
UniProt Q8NEV4, sequence (whole entry, looked up): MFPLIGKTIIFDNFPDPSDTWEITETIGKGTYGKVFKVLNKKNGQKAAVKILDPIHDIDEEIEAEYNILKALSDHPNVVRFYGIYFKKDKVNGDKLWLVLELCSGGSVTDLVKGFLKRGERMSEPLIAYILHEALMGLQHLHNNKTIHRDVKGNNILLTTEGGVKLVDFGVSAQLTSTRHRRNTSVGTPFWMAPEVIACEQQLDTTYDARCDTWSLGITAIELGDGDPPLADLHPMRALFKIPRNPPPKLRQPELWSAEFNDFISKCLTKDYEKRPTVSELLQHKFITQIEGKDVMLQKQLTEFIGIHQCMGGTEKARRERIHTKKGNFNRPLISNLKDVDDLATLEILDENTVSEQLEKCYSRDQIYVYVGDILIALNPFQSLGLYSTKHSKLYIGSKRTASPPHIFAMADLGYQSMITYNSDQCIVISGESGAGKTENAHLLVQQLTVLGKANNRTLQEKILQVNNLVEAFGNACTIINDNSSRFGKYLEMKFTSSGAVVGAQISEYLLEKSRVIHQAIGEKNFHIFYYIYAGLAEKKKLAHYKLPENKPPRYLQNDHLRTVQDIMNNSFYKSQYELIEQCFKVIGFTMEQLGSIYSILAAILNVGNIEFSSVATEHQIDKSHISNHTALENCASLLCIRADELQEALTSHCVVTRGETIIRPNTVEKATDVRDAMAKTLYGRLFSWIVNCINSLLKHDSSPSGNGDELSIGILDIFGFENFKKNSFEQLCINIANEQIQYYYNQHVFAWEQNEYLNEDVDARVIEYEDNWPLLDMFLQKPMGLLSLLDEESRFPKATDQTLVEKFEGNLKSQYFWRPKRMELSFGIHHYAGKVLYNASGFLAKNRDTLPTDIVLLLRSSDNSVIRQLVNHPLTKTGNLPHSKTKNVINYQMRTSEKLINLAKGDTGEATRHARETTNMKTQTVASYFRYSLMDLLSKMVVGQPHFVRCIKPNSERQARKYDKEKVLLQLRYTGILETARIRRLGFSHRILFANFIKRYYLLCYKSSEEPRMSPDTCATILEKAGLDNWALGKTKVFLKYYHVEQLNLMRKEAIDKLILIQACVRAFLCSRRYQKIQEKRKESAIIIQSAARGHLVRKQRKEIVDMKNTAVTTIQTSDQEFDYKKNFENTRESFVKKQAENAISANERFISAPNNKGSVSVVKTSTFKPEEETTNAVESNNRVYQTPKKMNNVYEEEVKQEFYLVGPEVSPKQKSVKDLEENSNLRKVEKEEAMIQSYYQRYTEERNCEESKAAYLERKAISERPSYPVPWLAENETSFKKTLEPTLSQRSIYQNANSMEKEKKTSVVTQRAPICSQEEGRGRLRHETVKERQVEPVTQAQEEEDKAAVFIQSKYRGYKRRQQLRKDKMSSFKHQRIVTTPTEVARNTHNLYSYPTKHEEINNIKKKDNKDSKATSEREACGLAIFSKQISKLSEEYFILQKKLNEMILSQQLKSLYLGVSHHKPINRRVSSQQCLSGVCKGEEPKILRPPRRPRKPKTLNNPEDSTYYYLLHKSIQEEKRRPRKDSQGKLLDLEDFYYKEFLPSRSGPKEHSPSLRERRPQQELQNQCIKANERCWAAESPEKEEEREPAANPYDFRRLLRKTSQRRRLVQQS
UniProt O60285, sequence (whole entry, looked up): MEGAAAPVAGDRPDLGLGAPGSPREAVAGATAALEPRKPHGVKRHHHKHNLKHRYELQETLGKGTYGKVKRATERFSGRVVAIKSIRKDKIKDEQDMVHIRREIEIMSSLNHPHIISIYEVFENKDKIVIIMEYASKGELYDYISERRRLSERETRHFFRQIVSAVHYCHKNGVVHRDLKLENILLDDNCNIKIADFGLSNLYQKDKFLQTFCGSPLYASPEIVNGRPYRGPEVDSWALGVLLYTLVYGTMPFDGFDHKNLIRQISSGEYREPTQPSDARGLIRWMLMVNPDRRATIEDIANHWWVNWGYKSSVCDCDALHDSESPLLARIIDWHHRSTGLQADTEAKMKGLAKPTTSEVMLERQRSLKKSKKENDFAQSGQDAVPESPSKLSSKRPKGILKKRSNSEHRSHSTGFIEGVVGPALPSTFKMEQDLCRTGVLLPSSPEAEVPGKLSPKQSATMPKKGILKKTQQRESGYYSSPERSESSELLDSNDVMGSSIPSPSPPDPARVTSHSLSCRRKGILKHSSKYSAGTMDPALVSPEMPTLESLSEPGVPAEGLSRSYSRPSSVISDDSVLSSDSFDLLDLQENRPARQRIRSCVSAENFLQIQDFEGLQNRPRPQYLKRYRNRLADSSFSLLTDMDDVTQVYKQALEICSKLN
UniProt P42336, sequence (whole entry, unmodified, looked up): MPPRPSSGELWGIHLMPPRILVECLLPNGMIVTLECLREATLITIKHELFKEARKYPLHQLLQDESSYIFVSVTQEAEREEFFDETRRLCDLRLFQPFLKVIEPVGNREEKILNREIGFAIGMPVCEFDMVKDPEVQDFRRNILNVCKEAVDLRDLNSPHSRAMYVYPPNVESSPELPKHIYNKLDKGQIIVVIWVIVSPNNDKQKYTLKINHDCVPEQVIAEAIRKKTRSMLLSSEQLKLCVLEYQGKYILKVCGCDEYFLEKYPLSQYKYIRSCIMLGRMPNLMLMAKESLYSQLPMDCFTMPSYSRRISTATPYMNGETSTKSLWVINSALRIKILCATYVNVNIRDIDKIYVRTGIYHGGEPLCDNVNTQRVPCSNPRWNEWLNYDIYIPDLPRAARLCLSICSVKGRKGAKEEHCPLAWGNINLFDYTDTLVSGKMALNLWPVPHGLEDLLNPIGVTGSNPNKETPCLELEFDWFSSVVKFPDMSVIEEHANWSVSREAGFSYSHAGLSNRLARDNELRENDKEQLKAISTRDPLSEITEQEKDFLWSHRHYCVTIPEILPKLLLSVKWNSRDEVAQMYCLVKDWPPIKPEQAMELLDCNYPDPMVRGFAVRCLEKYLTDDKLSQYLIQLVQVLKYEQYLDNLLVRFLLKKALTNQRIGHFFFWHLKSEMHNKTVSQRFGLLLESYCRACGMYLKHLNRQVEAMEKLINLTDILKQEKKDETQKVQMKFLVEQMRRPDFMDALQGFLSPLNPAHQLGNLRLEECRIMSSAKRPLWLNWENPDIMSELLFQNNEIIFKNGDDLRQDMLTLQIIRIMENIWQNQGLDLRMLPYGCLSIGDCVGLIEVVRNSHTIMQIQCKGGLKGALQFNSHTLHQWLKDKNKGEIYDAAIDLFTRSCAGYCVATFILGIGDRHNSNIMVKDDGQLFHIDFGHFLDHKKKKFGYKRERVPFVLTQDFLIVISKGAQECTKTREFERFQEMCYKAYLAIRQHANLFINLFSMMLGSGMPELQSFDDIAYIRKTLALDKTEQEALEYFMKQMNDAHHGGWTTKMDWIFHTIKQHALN
UniProt Q9H1R3, sequence (whole entry, looked up): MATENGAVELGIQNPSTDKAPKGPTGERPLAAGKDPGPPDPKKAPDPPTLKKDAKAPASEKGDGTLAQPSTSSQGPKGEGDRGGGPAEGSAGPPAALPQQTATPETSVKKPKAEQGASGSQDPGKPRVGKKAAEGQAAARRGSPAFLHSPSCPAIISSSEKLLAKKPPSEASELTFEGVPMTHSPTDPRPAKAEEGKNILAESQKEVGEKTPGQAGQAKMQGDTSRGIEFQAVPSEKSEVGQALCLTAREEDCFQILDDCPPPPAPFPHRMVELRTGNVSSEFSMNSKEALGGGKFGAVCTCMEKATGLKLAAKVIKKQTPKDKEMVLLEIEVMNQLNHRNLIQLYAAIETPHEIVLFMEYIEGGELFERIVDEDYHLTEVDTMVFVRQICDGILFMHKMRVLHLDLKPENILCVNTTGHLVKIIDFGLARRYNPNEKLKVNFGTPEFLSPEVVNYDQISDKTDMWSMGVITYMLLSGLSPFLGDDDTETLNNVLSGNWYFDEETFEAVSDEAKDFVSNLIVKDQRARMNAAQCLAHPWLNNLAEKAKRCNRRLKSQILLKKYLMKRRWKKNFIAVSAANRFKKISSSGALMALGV
UniProt Q9HBY8, sequence (whole entry, looked up): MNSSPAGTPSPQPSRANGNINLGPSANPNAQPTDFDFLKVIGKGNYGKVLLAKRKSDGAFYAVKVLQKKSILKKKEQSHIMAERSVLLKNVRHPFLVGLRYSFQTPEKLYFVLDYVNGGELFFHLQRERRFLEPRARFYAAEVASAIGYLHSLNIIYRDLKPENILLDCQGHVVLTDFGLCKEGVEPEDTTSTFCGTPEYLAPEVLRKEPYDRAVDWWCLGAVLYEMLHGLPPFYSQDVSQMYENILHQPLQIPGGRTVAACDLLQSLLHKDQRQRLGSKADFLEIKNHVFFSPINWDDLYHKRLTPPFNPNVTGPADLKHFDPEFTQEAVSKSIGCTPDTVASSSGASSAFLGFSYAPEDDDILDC

Set 1
Species: mouse
Matrix: microsomes or S9
Tested at: 2 µM
Time: 0.5 h
Measurement: remaining compound
O=C(Cn1c2ccccc2c2ncn(Cc3nc(C4CC4)no3)c(=O)c21)NC1CCCCC1: 6.65%
COc1ccc(CN2C(=O)C3=C(C#N)c4ccccc4Oc4cccc2c43)cc1: 83.3%
Cc1cc(Br)cc(C(=O)c2c(C(C)C)c(=O)[nH]c(=O)n2Cc2cc(F)nc(F)c2)c1: 63%
CC1(C)C=C(N2CCCC2=O)c2cc(C#N)ccc2O1: 60.1%

Set 2
Organism: Sarcocystis neurona
Read-out: parasite growth
Tested at: concentration not given
Setting: second screen
Baseline: untreated
Measurement: log2 fold change
CN(CCOc1ccc(CC2SC(=O)NC2=O)cc1)c1ccccn1.Cl (centres unmarked): -0.00346
CS(=O)(=O)O.O=C(O[C@H]1C[C@H]2CC3C[C@@H](C1)N2CC3=O)c1c[nH]c2ccccc12: 0.34
CC1=C(C(=O)O)N2C(=O)[C@@H](NC(=O)[C@H](N)c3ccccc3)[C@H]2SC1.O: 0.22
CN1CCC(=C2c3ccccc3CCc3sccc32)CC1.O=C(O)/C=C\C(=O)O: 0.32
O=C(N[C@H](CO)[C@H](O)c1ccc([N+](=O)[O-])cc1)C(Cl)Cl: 0.095

Set 3
Target: Beta-1 adrenergic receptor (ADRB1, Homo sapiens, UniProt P08588)
UniProt P08588, sequence (whole entry, looked up): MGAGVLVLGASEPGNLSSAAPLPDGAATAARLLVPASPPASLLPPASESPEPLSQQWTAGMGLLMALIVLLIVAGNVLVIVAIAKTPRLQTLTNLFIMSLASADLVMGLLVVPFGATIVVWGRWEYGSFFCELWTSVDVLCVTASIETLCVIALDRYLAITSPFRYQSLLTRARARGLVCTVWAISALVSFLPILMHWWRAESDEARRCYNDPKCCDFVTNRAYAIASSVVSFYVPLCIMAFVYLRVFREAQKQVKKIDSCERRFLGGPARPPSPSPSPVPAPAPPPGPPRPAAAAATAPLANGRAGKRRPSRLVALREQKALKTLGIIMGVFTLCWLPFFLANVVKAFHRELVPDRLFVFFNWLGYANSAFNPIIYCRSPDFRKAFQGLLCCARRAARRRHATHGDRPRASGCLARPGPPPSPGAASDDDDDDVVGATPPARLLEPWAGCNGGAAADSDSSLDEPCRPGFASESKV
Mode: antagonist
Measurement: IC50
CN(CCC(N)=O)Cc1ccccc1OCC(O)CN1CCc2ccccc2C1 (centres unmarked): ≥ 100 µM
Cn1c(=O)c2c(ncn2CCCNCC(O)c2cc(O)cc(O)c2)n(C)c1=O (centres unmarked): ≥ 100 µM
OC(c1ccccc1)c1nc(Nc2ccc(F)cc2)n[nH]1 (centres unmarked): ≥ 100 µM
Cc1cc2c(s1)c1cnn(Cc3c(F)ccc(C)c3Cl)c(=O)c1n2C: ≥ 100 µM

Set 4
Compound: O=C(NCc1ncc(C(F)(F)F)cc1Cl)c1ccc2c(c1)C1(CCS(=O)(=O)CC1)[C@@H](C1CC1)N2S(=O)(=O)c1ccc(F)cc1
Read-out: cell-free assay
Method: competition with immobilised ligand
Tested at: 1 µM
Measurement: remaining binding
MYLK2 (Homo sapiens, UniProt Q9H1R3): 83%
SGK2 (Homo sapiens, UniProt Q9HBY8): 77%
NUAK1 (Homo sapiens, UniProt O60285): 88%
BMPR2 (Homo sapiens, UniProt Q13873): 73%
Tyrosine-protein kinase JAK1, JH1 (JAK1, Homo sapiens, UniProt P23458): 85%
Myosin-IIIa (MYO3A, Homo sapiens, UniProt Q8NEV4): 100%
FLT3 (Homo sapiens, UniProt P36888): 100%
MARK2 (Homo sapiens, UniProt Q7KZI7): 63%
SLK (Homo sapiens, UniProt Q9H2G2): 100%
PIK3CA (Homo sapiens, UniProt P42336, H1047L): 85%

A few entries again (set 2):
CN1CCC(=C2c3ccccc3CCc3sccc32)CC1.O=C(O)/C=C\C(=O)O: 0.32
